Measurements gathered from unrelated publications.
Lines come from different studies, so protocols differ. ± marks the error that the study gave.

SMILES	cell line	read-out	technique	matrix	time	setting	IC50
Cc1ccc(N2Cc3cc(NC(=O)N4CCN(c5cccc(C(F)(F)F)c5)CC4)ccc3C2=O)cc1	MRC-5 SV2	cytotoxicity					> 64 µM
CC1(C)CCCC(C)(C2CCC3(C)C2C(O)CC2C4(C)CCC(OC(=O)NC5CCCCC5)C(C)(C)C4C(OC(=O)NC4CCCCC4)CC23C)O1 (stereo not shown)	Hep3B	cell growth or viability	MTT		24 h		> 30 µM
CC1OC(Oc2c(-c3ccc(O)cc3)oc3cc(O)cc(O)c3c2=O)C(OC(=O)C=Cc2ccc(O)cc2)C(O)C1OC(=O)C=Cc1ccc(O)cc1 (stereo not shown)	Hepa1-6	cell growth or viability			48 h		> 10 µM
CC1(C)CCCC(C)(C2CCC3(C)C2C(O)CC2C4(C)CCC(OC(=O)c5cn(-c6ccc(Cl)cc6)nn5)C(C)(C)C4C(O)CC23C)O1 (stereo not shown)	Hep3B	cell growth or viability	MTT		24 h		> 30 µM
Cc1ccc(N2Cc3cc(NC(=O)N4CCN(c5ccc(F)cc5)CC4)ccc3C2=O)cc1	MRC-5 SV2	cytotoxicity					> 64 µM
CC(=O)OCC1OC(n2ccc(=O)[nH]c2=O)C2CC=CCC12 (mixture of isomers)	CEM	cell growth			6 days		> 100 µM
COC(=O)C1CN1S(=O)(=O)c1ccc(C)c2ccccc12 (stereo not shown)	Balb/c 3T3 fibroblasts	cytotoxicity	neutral red uptake	DMEM with 5% FBS	24 h		48 ± 7 µM
Cc1cc(=O)c2c(O)c3c(O[C@@H]4O[C@H](CO)[C@@H](O)[C@H](O)[C@H]4O)cc(O)cc3cc2o1	HepaRG in HK-2 co-culture	cell viability	MTT		24 h		> 500 µM
Clc1ccc2ccc3[n+](c2c1)[Ir-3]12([c]4ccccc4-3)([c]3ccccc3-c3ccc4ccc(Cl)cc4[n+]31)[n+]1ccccc1-c1cccc[n+]12.F[P-](F)(F)(F)(F)F	MDA-MB-231 CDK9 siRNA knockdown	cytotoxicity	MTT				1.5 µM
CCCCCCCCCCN1C(=O)/C(=N\NC(=N)N)c2cc(C)ccc21	BJ	cell growth or viability	MTT		24 h		5.4 µg/mL
CCCCCCc1ccc(S(=O)(=O)N2CC2C(=O)N(C)C)cc1 (stereo not shown)	Balb/c 3T3 fibroblasts	cytotoxicity	neutral red uptake	DMEM with 5% FBS	24 h		11 ± 1 µM
CC(=O)OCC1OC(n2cnc3c(Cl)nc(Cl)nc32)C2CC=CCC12 (mixture of isomers)	CEM	cell growth			6 days		5.9 µM
C=C1C(=O)OC2C=C(C)CCC=C(C(=O)OC(C)C(C)(O)C(=O)OC3C(OC(C)=O)C(C(=O)OC)=CCCC4(C)OC4C4OC(=O)C(=C)C34)CC(OC(=O)C(C)=CC)C12 (stereo not shown)	NIH/3T3	cytotoxicity	WST-8		24 h	10% FBS	4.81 µM
O=C(Nc1ccc2c(c1)CN(c1ccc(Br)cc1)C2=O)N1CCN(c2ccc(F)cc2)CC1	MRC-5 SV2	cytotoxicity					> 64 µM
CCCC(CCC)C(=O)[O][Pt]([Cl])([Cl])[O]C(=O)C(CCC)CCC.N.N	HCT-116 p53-/-	cytotoxicity			72 h		1.4 ± 0.2 µM
O=C(Nc1ccc2c(c1)CN(c1ccc(F)c(F)c1)C2=O)N1CCN(c2ccc(Cl)cc2)CC1	MRC-5 SV2	cytotoxicity					> 64 µM
CC1(C)CCCC(C)(C2CCC3(C)C2C(O)CC2C4(C)CCC(OC(=O)CN)C(C)(C)C4C(O)CC23C)O1 (stereo not shown)	Hep3B	cell growth or viability	MTT		24 h		> 30 µM
CN(C)c1ccc2cc(S(=O)(=O)N3CC3C(N)=O)ccc2c1 (stereo not shown)	Balb/c 3T3 fibroblasts	cytotoxicity	neutral red uptake	DMEM with 5% FBS	24 h		19 ± 1 µM
Oc1cc2nc(c1)CNCc1cc(O)cc(n1)CNC2	HT-22	cytotoxicity	MTT		16 h		566 µM

SMILES	cell line	read-out	technique	matrix	time	setting	IC50
CC1(C)CCCC(C)(C2CCC3(C)C2C(O)CC2C4(C)CCC(OC(=O)C=Cc5ccc(Cl)cc5)C(C)(C)C4C(OC(=O)C=Cc4ccc(Cl)cc4)CC23C)O1 (stereo not shown)	Hep3B	cell growth or viability	MTT		24 h		> 30 µM
Nc1ccn(C2OC(CO)C3CC=CCC32)c(=O)n1 (mixture of isomers)	CEM	cell growth			6 days		> 100 µM
CN(C)C(=O)C1CN1S(=O)(=O)c1ccc(C2CCCCC2)cc1 (stereo not shown)	Balb/c 3T3 fibroblasts	cytotoxicity	neutral red uptake	DMEM with 5% FBS	24 h		10 ± 1 µM
CC(=O)OCC1OC(n2cc(C=CBr)c(=O)[nH]c2=O)C2CC=CCC12 (mixture of isomers)	CEM	cell growth			6 days		> 100 µM
COC(=O)C1CN1S(=O)(=O)c1cccc2c(C=O)c(N(C)C)ccc12 (stereo not shown)	Balb/c 3T3 fibroblasts	cytotoxicity	neutral red uptake	DMEM with 5% FBS	24 h		26 ± 5 µM
C=C1C(=O)O[C@@H]2/C=C(\C)CC/C=C(/C(=O)OC)[C@H](OC(C)=O)[C@@H](OC(=O)/C(C)=C\C)[C@@H]12	NIH/3T3	cytotoxicity	WST-8		48 h	10% FBS	5.24 µM
CC(C)(C)OC(=O)NC(Cc1c[nH]c2ccccc12)C(=O)OC1CC2(C)C(CC(O)C3C(C4(C)CCCC(C)(C)O4)CCC32C)C2(C)CCC(OC(=O)C(Cc3c[nH]c4ccccc34)NC(=O)OC(C)(C)C)C(C)(C)C12 (stereo not shown)	Hep3B	cell growth or viability	MTT		24 h		> 30 µM
CCCCc1ccc(S(=O)(=O)N2CC2C(=O)N(C)C)cc1 (stereo not shown)	Balb/c 3T3 fibroblasts	cytotoxicity	neutral red uptake	DMEM with 5% FBS	24 h		13 ± 1 µM
O=C(Nc1ccc2c(c1)CN(c1ccccc1)C2=O)N1CC[C@H](F)C1	MRC-5 SV2	cytotoxicity					> 64 µM
C=C1C(=O)OC2C=C(C)CCC=C(C(=O)OC(C)C(C)(O)C(=O)OC3C(OC(C)=O)C(C(=O)OC)=CCCC(C)=CC4OC(=O)C(=C)C43)CC(OC(=O)C(C)=CC)C12 (stereo not shown)	NIH/3T3	cytotoxicity	WST-8		48 h	10% FBS	1.66 µM
COC(=O)C1CN1S(=O)(=O)c1cccc2c(N(C)C)cccc12 (stereo not shown)	Balb/c 3T3 fibroblasts	cytotoxicity	neutral red uptake	DMEM with 5% FBS	24 h		100 ± 7 µM
O=C(Nc1ccc2c(c1)CN(c1ccc(Cl)cc1)C2=O)N1CC[C@H](F)C1	MRC-5 SV2	cytotoxicity					> 64 µM
CC(C)(C)OC(=O)N[C@@H](Cc1c[nH]c2ccccc12)C(=O)OC1CC2(C)C(CC(O)C3C(C4(C)CCCC(C)(C)O4)CCC32C)C2(C)CCC(O)C(C)(C)C12 (stereo partly shown)	Hep3B	cell growth or viability	MTT		24 h		> 30 µM
COC(=O)C1CN1S(=O)(=O)c1ccc(N(C)C)c2ccccc12 (stereo not shown)	Balb/c 3T3 fibroblasts	cytotoxicity	neutral red uptake	DMEM with 5% FBS	24 h		153 ± 15 µM
CC(C)(C)OC(=O)NCC(=O)OC1CCC2(C)C(C(O)CC3(C)C2CC(O)C2C(C4(C)CCCC(C)(C)O4)CCC23C)C1(C)C (stereo not shown)	Hep3B	cell growth or viability	MTT		24 h		> 30 µM
O=C(Nc1ccc2c(c1)CN(c1ccccc1)C2=O)N1CC[C@H](O)C1	MRC-5 SV2	cytotoxicity					> 64 µM
CC1(C)CCCC(C)(C2CCC3(C)C2C(O)CC2C4(C)CCC(OC(=O)Nc5ccccc5)C(C)(C)C4C(OC(=O)Nc4ccccc4)CC23C)O1 (stereo not shown)	Hep3B	cell growth or viability	MTT		24 h		> 30 µM
C=C1C(=O)O[C@@H]2/C=C(\C)CC/C=C(/C(=O)OC)C[C@@H](OC(=O)/C(C)=C\C)[C@@H]12	NIH/3T3	cytotoxicity	WST-8		48 h	10% FBS	11.1 µM

A few entries again:
SMILES	cell line	read-out	technique	matrix	time	setting	IC50
CN(C)c1ccc2cc(S(=O)(=O)N3CC3C(N)=O)ccc2c1 (stereo not shown)	Balb/c 3T3 fibroblasts	cytotoxicity	neutral red uptake	DMEM with 5% FBS	24 h		19 ± 1 µM
Oc1cc2nc(c1)CNCc1cc(O)cc(n1)CNC2	HT-22	cytotoxicity	MTT		16 h		566 µM
CC1(C)CCCC(C)(C2CCC3(C)C2C(O)CC2C4(C)CCC(OC(=O)C=Cc5ccc(Cl)cc5)C(C)(C)C4C(OC(=O)C=Cc4ccc(Cl)cc4)CC23C)O1 (stereo not shown)	Hep3B	cell growth or viability	MTT		24 h		> 30 µM
Nc1ccn(C2OC(CO)C3CC=CCC32)c(=O)n1 (mixture of isomers)	CEM	cell growth			6 days		> 100 µM
CN(C)C(=O)C1CN1S(=O)(=O)c1ccc(C2CCCCC2)cc1 (stereo not shown)	Balb/c 3T3 fibroblasts	cytotoxicity	neutral red uptake	DMEM with 5% FBS	24 h		10 ± 1 µM
